Published values collected from several papers.
A part holds a random share of what one study measured. Substitutions count along the parent as printed.

Set 1 — target: CREM, bZIP domain (human); method: DHFR protein complementation; medium: yeast; relative to: wild-type JUN-FOS pair; direction: higher = stronger binding
Setting: single substitutions, most at no-binding floor
Starting sequence: JUN, bZIP domain (human); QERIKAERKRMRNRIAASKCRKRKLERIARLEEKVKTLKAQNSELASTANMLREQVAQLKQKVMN; partner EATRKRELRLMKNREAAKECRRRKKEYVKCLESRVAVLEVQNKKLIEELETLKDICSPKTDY
Change	binding fitness
N42V	-1.5 natural log
E33S	-1.37 natural log
V35R	-1.43 natural log
Q41W	-1.5 natural log
L45V	-1.65 natural log
S47M	-1.41 natural log
E54W	-1.48 natural log
A46F	-1.63 natural log
A57K	-1.49 natural log
A49S	-1.41 natural log
S43N	-1.41 natural log
N42L	-1.5 natural log
V35T	-1.52 natural log
Q55P	-1.57 natural log
S47P	-1.52 natural log
E44Y	-1.57 natural log
L38K	-1.53 natural log
E32D	-1.53 natural log
Q41A	-1.48 natural log
S47W	-1.46 natural log
N42T	-1.56 natural log

Set 2 — method: RNA Bind-n-Seq; form: RNA; medium: in vitro; tested at: 365 nM; relative to: no-protein control; direction: higher = stronger binding
Target: RNA binding protein fox-1 homolog 2, RRM domain, GST-SBP tag (RBFOX2, Homo sapiens, UniProt O43251-10, residues 100-194)
Setting: natural RNA segment, single round, ends assumed
Constant ends, left off below: GGGAGUUCUACAGUCCGACGAUC … UGGAAUUCUCGGGUGCCAA
Construct (chain): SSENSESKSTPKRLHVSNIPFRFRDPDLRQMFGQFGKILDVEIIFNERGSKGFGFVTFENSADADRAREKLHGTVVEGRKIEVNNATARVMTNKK
Strand	RBNS enrichment (R)
CUGAACAUUAGUUUGUAGUGUAACUAUUAGUAAAAAUAGAGAAACACAGCAUACUGUUCAUUAAUAGUAUUUUAAAAAAAUUGUUUUUCAAAUGUCACCAAUAAAAGUUU	1.11
AGCCCAGAUUUAUUUCAAUUCAAAUAUUACUGCUUCGUAAUUAUGAAGAGUAGUGCAAAUUUACAGAGCACUGUCAAAGACUGACAGAAAAAAAAAAGAUCUGCUCUGUA	0.483
GAGGCGAGUGAGUGGCAUUAGCUCCCGGACCCAUUCCCGGUCCUAGCUGGGCAUGGGGCUGACGGAGAUGACCAAGCCUUGGUCUGCUCUCUAGCAGCUUCCACAGACUU	0.262
UUCUAGACUUUUUGUUUCUUGCAACAACAGUGCCCUCUGCUGCUAGAAACCUUUUUCUACUUACUAUCAUUUUUAUUGUGGCUUGAGCUCAGUCAAUCUGGUGCAGAUGA	0.567
UUAUUUUGGACAUUCUUAAAUAUGAAUUCUCCAAAGGCAUUUAGCCUUGACUUAAUAUUAAAUCCUAAGGAUUUUAUGUAAGGUUUUUUUGCAACCUAUUUAAUUUUUUU	1.24
UCUCAACUUUGCCCGCUCACCAUGUCCCUUGCCCCCAUGUAGCCCAUUUCCCAGGUUAUGCUCUUUUCUUUCUCAGGGUCCUCUUUGGUGGGCAGCCACUCCCCGAGAUG	1.09
CAUUUCAGCACCUCCAAAGGGUCCUAGGAUAUUCUGCCUCUCUCUUCACCCUGUCCCCAGACGGGGGAACCCGUGGGUCAGGCGUGGAUAAGCCUGCGAGAAUACACCCU	1.23
AUGUAAUGGAUUAUGUGGAAUUGUAGUGCCAUCGGUUUUUACUUAGAGCCCUUGACGUGCUUGGACCAAUAUUUCCUUCCUUCUUAUGAACCAGGUUUUUCCUUCUGAUU	0.383
CCCUCACCAAAACUCACACAGUUGCGAGAAGAGCUGCUGUCUGUGGACACGUAGAGAAAGGACAUUCAUGACAUCCCUGUGGUGUGGUUAAUGUGCGACGUGUCGCCCAA	0.243
CUUUUUCUACUGUUCAUUUUAUUCUGUGGCCUUUCAGUGUAAUAAACUGAAAUCAUGACUUUCACAACUGUGUUGAGUUCAUUGGGUCCUUGUCGUGUCCUUUGAAGCAU	0.419
AAGAUGUAAUUCACAAAUAGUUUAGCUCCCUAGCGCUCAGUUGUAGAAUAGAAAAUAGAACAUUAUUCAAGUUAAUUGAAAGGUGAGGUUUUUAUACCCCCACUAAUGCU	0.627
ACAGCCCAGGUCACACGUGGGGUCAGCAGAGGUACCACGAAGCUACCUUUUGGGAUGAUUGCUCGAUUGUUUGGUUUUUAAAUCUGAGAAGCCUAGAUAACUAAUCUGCU	0.347

Set 3 — method: RNA Bind-n-Seq; form: RNA; medium: in vitro; tested at: 200 nM; setting: whole 134-nt RNA, ends assumed; together with: 150 mM LiCl; relative to: input library; direction: higher = stronger binding; all molecules: 7-deaza-guanosine replaces G
Target: Fragile X messenger ribonucleoprotein 1, C-terminal low-complexity region (Fmr1, Mus musculus, UniProt P35922)
Constant ends, left off below: GGGAGUUCUACAGUCCGACGAUC … UGGAAUUCUCGGGUGUCAAGG
Strand	log2 enrichment
AAGUCCUGUGCUACACAUCGUAUGUACCGAAUCGGCCCCGGGGCCCCGGCCCCGGGAAAGUAUUAUGUUACGCCGUUCGGAUCUGCACUU	-2.96
CACAGACAACACGCACCCACACAGACACAAAGGGAAGGGGUUGGGAUGGGGACAGGGUGCACAGCAGGGCGGGGUAGGACCCCAGCCCCU	0.0902
UGGCCCUGGUGGCAUGCGGGGAGGAAGAGGUGGCAUCAUGGAUCGUGGUGGUCCCGGUGGAAUGUUCAGAGGUGGCCGUGGUGGAGACAG	0.468
CACAGACAACACGCACCCACACAGACACAGAGGGAAGGGGUUGGGAUGGGGACAGGGUGCAUAGCAGGGCGGGGUAGGACCCCAGCCCCU	-0.0182
UCCUGUGCUACACAUCGUAUGUACCGAAUCGGGUUUGGGUUUUUUUGGGUUUUUUUGGGAAAGUAUUAUGUUACGCCGUUCGGAUCUGCA	0.223
AGCAUGCAGGUGGGCAUCUUUGGGAAGUGGGGCAAGGGGGGGAUAGGGAGGGGGGUAACACUUUGGGAACAGGUGGUCCCAGGUCGUUUC	1.22
UGUGCUACACAUCGUAUGUACCGAAUCGGGGAAAAAAAGGGAAAAAAAGGGGAAAAAAAGGGAAAGUAUUAUGUUACGCCGUUCGGAUCU	0.661
UAACUUUAGAGGAGGAUCUGAUGGAUAUGGCAGUGGACGUGGAUUUGGGGAUGGCUAUAAUGGGUAUGGAGGAGGAUCUGGAGGUGGCAA	0.904
UUCCUCAAGUCCUGUGCUACACAUCGUAUGUACCGAAUCGGUGGUGGUGGGAAAGUAUUAUGUUACGCCGUUCGGAUCUGCACUUCCAGC	0.901
AGUCCUGUGCUACACAUCGUAUGUACCGAAUCGGGAAAAGGGGAAAAGGGAAAAGGGAAAGUAUUAUGUUACGCCGUUCGGAUCUGCACU	-0.835
UCAAGUCCUGUGCUACACAUCGUAUGUACCGAAUCGGCCCGGGCCCGGGCCCGGAAAGUAUUAUGUUACGCCGUUCGGAUCUGCACUUCC	-2.19

Set 4 — method: protein binding microarray; form: double-stranded DNA, one strand shown; medium: in vitro; tested at: not given; relative to: not given; direction: higher = stronger binding
Target: Histone acetyltransferase KAT6A, winged helix 1, GST fusion (KAT6A, Homo sapiens, UniProt Q92794, residues 1-85)
Setting: 8-mer, flanks averaged, mean of 2 arrays, mostly near background
Residues (chain): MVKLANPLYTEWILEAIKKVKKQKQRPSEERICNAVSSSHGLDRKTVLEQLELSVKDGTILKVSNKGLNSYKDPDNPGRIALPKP
Strand	E-score
CGGGAGAC	0.246
TGTCCCAA	-0.127
CGGGCGTA	0.352
AACTCGAG	-0.24
CCACTGAG	-0.219
AGAAGCCT	-0.0878
CTAATTAC	-0.0882
AATACCCT	0.0284
CCTGGTCC	-0.128
CAAACCTA	-0.122
AGTGTCAC	-0.0742
CAACTATA	-0.067
CGGGCTAG	0.181
GAACGAGA	0.0116
ACAAGGCA	-0.262
AAACCCGC	0.274

Set 5 — method: universal PBM; form: double-stranded DNA, one strand shown; medium: in vitro; tested at: 600 nM; direction: higher = stronger binding
Target: Sal-like protein 4, full length isoform A (SALL4, Homo sapiens, UniProt Q9UJQ4, residues 1-1053)
UniProt Q9UJQ4, sequence (whole entry, looked up): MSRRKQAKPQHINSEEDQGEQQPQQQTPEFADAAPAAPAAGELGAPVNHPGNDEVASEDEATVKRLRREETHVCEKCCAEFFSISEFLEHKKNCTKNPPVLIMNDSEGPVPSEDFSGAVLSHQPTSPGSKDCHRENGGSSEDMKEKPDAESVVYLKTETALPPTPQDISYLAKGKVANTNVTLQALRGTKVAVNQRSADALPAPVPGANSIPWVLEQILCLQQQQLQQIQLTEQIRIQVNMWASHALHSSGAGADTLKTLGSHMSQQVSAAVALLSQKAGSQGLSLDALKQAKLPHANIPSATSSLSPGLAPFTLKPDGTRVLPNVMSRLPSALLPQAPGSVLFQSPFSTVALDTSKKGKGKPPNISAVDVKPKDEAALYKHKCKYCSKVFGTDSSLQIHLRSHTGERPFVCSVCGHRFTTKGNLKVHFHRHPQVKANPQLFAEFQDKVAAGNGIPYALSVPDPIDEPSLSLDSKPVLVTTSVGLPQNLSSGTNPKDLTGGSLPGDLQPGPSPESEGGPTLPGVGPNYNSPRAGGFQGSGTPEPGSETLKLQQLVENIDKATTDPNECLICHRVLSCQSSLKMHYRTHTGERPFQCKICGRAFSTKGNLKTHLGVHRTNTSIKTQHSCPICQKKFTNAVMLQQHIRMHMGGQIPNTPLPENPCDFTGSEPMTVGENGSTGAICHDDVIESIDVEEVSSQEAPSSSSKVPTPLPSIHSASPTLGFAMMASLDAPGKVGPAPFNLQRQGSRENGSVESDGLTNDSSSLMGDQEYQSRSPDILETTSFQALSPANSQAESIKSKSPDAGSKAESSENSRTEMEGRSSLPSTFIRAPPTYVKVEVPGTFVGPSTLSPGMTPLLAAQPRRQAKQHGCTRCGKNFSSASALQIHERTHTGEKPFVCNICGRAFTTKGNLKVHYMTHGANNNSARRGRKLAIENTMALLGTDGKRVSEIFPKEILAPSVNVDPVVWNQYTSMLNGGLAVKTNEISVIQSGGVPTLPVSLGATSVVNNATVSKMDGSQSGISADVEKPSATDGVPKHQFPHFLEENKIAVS
Setting: 8-mer, flanks averaged, mean of replicates
Strand	E-score
CCCGCACG	-0.31
AAACTGTT	0.249
CCCGCAGC	-0.363
AGGCCCTA	-0.21
GAAAATGA	0.219
CTCTTGGC	-0.173
AAGCGTTG	-0.0496
CCTCGCAC	-0.218
CATGGCGC	-0.183
AACAACCC	-0.0761
CAAAGAAA	0.166
ATATTGCG	0.326
TAGTATCA	0.23
TAAGCCAA	0.13
AGCCAGCA	-0.224
ACAACCGT	-0.116
AAGCGCAT	-0.0447
CCACGGGC	-0.396
TCCGCAAA	0.0842
GTCAGTCA	-0.00732
CCCAAGAA	0.012
ATCGTCAT	0.231

Some of these lines once more (set 2):
Strand	RBNS enrichment (R)
GAGGCGAGUGAGUGGCAUUAGCUCCCGGACCCAUUCCCGGUCCUAGCUGGGCAUGGGGCUGACGGAGAUGACCAAGCCUUGGUCUGCUCUCUAGCAGCUUCCACAGACUU	0.262
AAGAUGUAAUUCACAAAUAGUUUAGCUCCCUAGCGCUCAGUUGUAGAAUAGAAAAUAGAACAUUAUUCAAGUUAAUUGAAAGGUGAGGUUUUUAUACCCCCACUAAUGCU	0.627
AGCCCAGAUUUAUUUCAAUUCAAAUAUUACUGCUUCGUAAUUAUGAAGAGUAGUGCAAAUUUACAGAGCACUGUCAAAGACUGACAGAAAAAAAAAAGAUCUGCUCUGUA	0.483
UUAUUUUGGACAUUCUUAAAUAUGAAUUCUCCAAAGGCAUUUAGCCUUGACUUAAUAUUAAAUCCUAAGGAUUUUAUGUAAGGUUUUUUUGCAACCUAUUUAAUUUUUUU	1.24
ACAGCCCAGGUCACACGUGGGGUCAGCAGAGGUACCACGAAGCUACCUUUUGGGAUGAUUGCUCGAUUGUUUGGUUUUUAAAUCUGAGAAGCCUAGAUAACUAAUCUGCU	0.347
CCCUCACCAAAACUCACACAGUUGCGAGAAGAGCUGCUGUCUGUGGACACGUAGAGAAAGGACAUUCAUGACAUCCCUGUGGUGUGGUUAAUGUGCGACGUGUCGCCCAA	0.243
UUCUAGACUUUUUGUUUCUUGCAACAACAGUGCCCUCUGCUGCUAGAAACCUUUUUCUACUUACUAUCAUUUUUAUUGUGGCUUGAGCUCAGUCAAUCUGGUGCAGAUGA	0.567
AUGUAAUGGAUUAUGUGGAAUUGUAGUGCCAUCGGUUUUUACUUAGAGCCCUUGACGUGCUUGGACCAAUAUUUCCUUCCUUCUUAUGAACCAGGUUUUUCCUUCUGAUU	0.383
UCUCAACUUUGCCCGCUCACCAUGUCCCUUGCCCCCAUGUAGCCCAUUUCCCAGGUUAUGCUCUUUUCUUUCUCAGGGUCCUCUUUGGUGGGCAGCCACUCCCCGAGAUG	1.09
CUUUUUCUACUGUUCAUUUUAUUCUGUGGCCUUUCAGUGUAAUAAACUGAAAUCAUGACUUUCACAACUGUGUUGAGUUCAUUGGGUCCUUGUCGUGUCCUUUGAAGCAU	0.419
CUGAACAUUAGUUUGUAGUGUAACUAUUAGUAAAAAUAGAGAAACACAGCAUACUGUUCAUUAAUAGUAUUUUAAAAAAAUUGUUUUUCAAAUGUCACCAAUAAAAGUUU	1.11
CAUUUCAGCACCUCCAAAGGGUCCUAGGAUAUUCUGCCUCUCUCUUCACCCUGUCCCCAGACGGGGGAACCCGUGGGUCAGGCGUGGAUAAGCCUGCGAGAAUACACCCU	1.23
